Assay results from different studies.
Protocols differ between the studies behind these lines. Several values in a cell are separate wells, animals, samples, runs or records. ± marks the error that the study gave.

For `CCCCOC(=O)N1CCN(C(=O)[C@H](CP(=O)(O)O)NC(=O)c2cc(N3CC[C@H](OC)C3)nc(-c3ccccc3)n2)CC1`, “change from baseline” read -0.24 ± 1.19 mmol/L (item: Urea; human, blood; 8 mg, 24 h).
`C[C@@H](N)C1CCN(S(=O)(=O)c2cccc3cnccc23)CC1` has a TEAE incidence of 0% (item: Tachycardia; healthy volunteers; 150 mg, fed).
The SUV of `CNc1ccc(-c2nc3ccc(O)cc3s2)cc1` [carbon-11 labelled] is reported as 0.743 ± 0.211 (microPET/CT imaging; B6SJL mouse, normal, brain; intravenous, 5 min).
`NC1(C(=O)N[C@@H](CCO)c2ccc(Cl)cc2)CCN(c2nc[nH]c3nccc2-3)CC1` — result for “incidence of Nausea”: 46.7% (metastatic CRPC patients; dose not given, any grade, treatment-related, all doses, together with: enzalutamide 160 mg daily).
For `N#Cc1ccc2c(c1)[C@H]1CCCN(C(=O)c3ccc4[nH]cnc4c3)[C@H]1C2`, the SHBG was 36 nmol/L (human females; 360 mg, end of trial).
For `C[Si]1(C)O[Si](C)(C)O[Si](C)(C)O[Si](C)(C)O[Si](C)(C)O1`, the log KAW was 3.85 (0.001 to 0.003 µg/L, 34.8 °C).
`COc1ncc(-c2nc3c(n2C(C)C)[C@H](c2ccc(Cl)cc2)N(c2cc(Cl)cn(C)c2=O)C3=O)c(OC)n1` gave a Cmax of 393 ng/mL (LC-MS/MS; human, plasma; oral, 45 mg, cycle 2 day 1, low-dose arm).
`c1ccc2c(c1)ccc1ccccc12` — result for “literature range factor”: 5 (polyethylene-water partitioning; PAH compilation; reference: maximum over minimum K).
The tissue concentration of `CN(C(=O)n1cnc(-c2cccnc2)c1)[C@H]1CC[C@H](O)CC1` is reported as 15.8 ± 0.7 ng/g (rat, cortex; oral, 10 mg/kg single dose, 1 h).
For `Cc1cc(-c2nnc(N)nc2-c2ccc(F)cc2)cc(Cl)n1`, “patients with immune-mediated AE” read 0% (item: rash; post-IO other solid tumour patients; oral, 100 mg once daily, treatment-related, grade 1).
The Cmax/dose of `O=C(c1cccnc1-c1ccncc1)N1CCC(O)(Cc2ccccc2)CC1` is reported as 5.47 ng/mL/mg (healthy Japanese adults, plasma; oral, 600 mg single dose).
Under “blood UREA change”, `CCc1cc(C(=O)NC)c2nccc(N3CCc4c(cc(Cn5ccnc5)cc4-c4cn(C)nc4C(F)(F)F)C3=O)c2c1` is recorded as 17.5% (Sprague Dawley rats; oral, 100 mg/kg twice daily, 7 days; reference: vehicle).
For `CCN(CC)CCOC(=O)c1ccc(N)cc1`, the remaining compound was 100% (LC-MS; BALB/c nude mouse, plasma; 0 min).
Under “ER dose fraction absorbed zero-order”, `CC[C@@H]1CN(C(=O)NCC(F)(F)F)C[C@@H]1c1cnc2cnc3[nH]ccc3n12` is recorded as 72.9% (population PK modelling; human; oral, extended-release formulation, outliers re-estimated).
With `Cl.[2H]C([2H])([2H])CC(=O)c1cnc(NC(=O)C2CC2)cc1Nc1cccc(-c2ncn(C([2H])([2H])[2H])n2)c1OC` the renal clearance was 0.89 to 1.68 mL/min (human; oral, 50 mg, single and multiple dose, geometric mean range).
`COc1cc(F)c([C@@H]2CNC(=O)[C@H]2NC(=O)Nc2ccccc2)c(F)c1` gave a blood concentration of 210 ± 72 nM (Sprague-Dawley rat, myocardial infarction, dried blood spot; oral, 1 mg/kg, 1 h).
With `CO[C@H]1C[C@@H]2CC[C@@H](C)[C@@](O)(O2)C(=O)C(=O)N2CCCC[C@H]2C(=O)O[C@H]([C@H](C)C[C@@H]2CC[C@@H](OC(=O)NCCOCCOCCOCCOCCOCCOCCOCCOCCC(=O)N3CCc4cc(Cn5nc(-c6ccc7oc(N)nc7c6)c6c(N)ncnc65)ccc4C3)[C@H](OC)C2)C[C@@H](O)[C@H](C)/C=C(\C)[C@@H](O)[C@@H](OC)C(=O)[C@H](C)C[C@H](C)/C=C/C=C/C=C/1C` the Tmax was 0.8 h (human, plasma; intravenous, 8 mg, cycle 1 day 1, arithmetic mean).
`COCc1cc(C(=O)Nc2cc([C@H]3CC[C@@H](OC(=O)NC(C)C)C3)[nH]n2)n(C)n1` has an AUC(0-24h) of 46.6 µM·h (OVCAR-3 xenograft, NOD/SCID gamma mice, plasma; oral, 175 twice daily, tumour growth inhibition study).
For `CNC(=O)c1cc(Oc2ccc(NC(=O)Nc3ccc(Cl)c(C(F)(F)F)c3)c(F)c2)cc[n+]1[O-]`, the accuracy was 103% (short-term stability; mouse plasma; 75 ng/mL, 8 h, room temperature).
The renal clearance of `O=C(c1nc2n(n1)[C@H](c1ccccc1)C[C@@H]2F)C1CC1` is reported as 0.15 mL/min (human; 5 mg single dose, mean).
Under “patients with adverse event”, `Cc1cc(NC2CCN(C(=O)OC3CCN(C(=O)/C=C/CN(C)C)C3)CC2)n2ncc(C(C)C)c2n1` (stereo not drawn) is recorded as 2% (Phase I dose escalation CTCAE v4.0, item: decreased appetite; patients with advanced solid tumours; dose not given, QD dosing grade 3 or higher).
Under “AUC at steady state”, `C=CC(=O)Nc1cc(Nc2nccc(-c3cn(C)c4ccccc34)n2)c(OC)cc1N(C)CCN(C)C` is recorded as 15.5 to 109 µM·h (human patients, plasma; dose not given, Q4 exposure quartile, with chemotherapy).
`C[C@H]1Oc2cc(cnc2N)-c2c(nn(C)c2C#N)CN(C)C(=O)c2ccc(F)cc21` — result for “free plasma concentration”: 935 nM (Balb/c nude mouse, female, plasma; 5 mg/kg twice daily for 5 days, 1 h).
`COc1cccc(OC)c1-c1cc(C(=O)NC2(C(=O)O)C3CC4CC(C3)CC2C4)nn1-c1ccc(C(=O)N(C)CCCN(C)CCCN(C)C(=O)CN2CCN(CC(=O)[O-])CCN(CC(=O)[O-])CCN(CC(=O)[O-])CC2)cc1C(C)C.[177Lu+3]` (stereo not drawn) has a tissue uptake of 0.34 %ID/g (mouse, HT-29 xenograft, brain; 4 h post injection).
The accuracy of `O=C(O)C1=CO[C@@H](O[C@@H]2O[C@H](CO)[C@@H](O)[C@H](O)[C@H]2O)[C@@H]2C(CO)=CC[C@H]12` is reported as 98.8% (post-procedure stability; rat plasma; 1000 ng/mL, 3 h, room temperature).
`Cc1c(-c2ccc(N3CCc4cccc(C(=O)Nc5nc6ccccc6s5)c4C3)nc2C(=O)O)cnn1CC12CC3(C)CC(C)(C1)CC(OCCNCC[C@H](O)CO)(C3)C2` — result for “heart rate change”: -16% (beagle dog, male, anaesthetised; intravenous infusion, 0.3 mg/kg/min, 105 (unit not given); reference: vehicle).
`O=C(O)CCC(=O)O.[2H]C([2H])([2H])Oc1cc(C)c2[nH]ccc2c1CN1CC[C@@H](C2CC2)C[C@H]1c1ccc(C(=O)O)cc1` — result for “subjects with elevated ALT TEAE”: 0% (multiple ascending dose; healthy Chinese subjects; 125 mg twice daily).
Under “ERG, scotopic, rod b-wave”, `CCCC(CCC)C(=O)Oc1cccc(C(O)CCN)c1.O=CO` (stereo not drawn) is recorded as 36.2 µV and 42.7 µV and 59.4 µV and 34.2 µV and 56 µV and 51.3 µV (Abca4-/-Rdh8-/- mice, photic damage; oral, 20 mg/kg, 7 days, flash intensity 0.003).
`COc1ccc2nc([S@@+]([O-])Cc3ncc(C)c(OC)c3C)[nH]c2c1`: “AUC fold change” 7.4 fold (human male, dried plasma spots; dose not given, mean, together with: fluvoxamine and voriconazole; reference: inhibition over control).
Under “subjects with adverse event”, `CC(C)(C(=O)N1CCOc2c(C#N)cncc2C1)C(F)F` is recorded as 0% (item: Headache; human; oral, 20 mg once daily, 14 days, multiple ascending dose).
`CNC(=O)c1ccc(-c2cnc3ncc(Cc4ccc5ncccc5c4)n3n2)cc1F`: “patients with adverse event” 9% (item: Dizziness, all grades; hepatocellular carcinoma patients; oral, 600 mg twice daily, expansion cohort, any causality).
`CCN1/C(=C/C(C)=O)Sc2ccc(F)cc21`: “QTc interval (Bazett)” 328 ± 17 ms (cynomolgus monkey; oral, 30 mg/kg, 24 h post-dose).
`CC[C@H](C)[C@H](NC(=O)CN)C(=O)N[C@@H](CC(C)C)C(=O)N[C@@H](CC(=O)O)C(=O)N[C@@H](C)C(=O)N[C@H](C(=O)N[C@@H](CCCCN)C(=O)N[C@@H](C)C(=O)N[C@H](C(=O)N[C@@H](C)C(=O)N[C@@H](CCCCN)C(=O)N[C@@H](C)C(=O)N[C@H](C(=O)N[C@@H](CCCCN)C(=O)N[C@@H](C)C(=O)N[C@@H](CCCCN)C(=O)N[C@@H](C)C(=O)NCC(N)=O)[C@@H](C)CC)[C@@H](C)CC)[C@@H](C)CC` gave a helix content of 16% (circular dichroism; 10 mM SDS; 100 µM).
`CCc1nc(C(N)=O)c(Nc2ccc(N3CCC(N4CCN(C)CC4)CC3)c(OC)c2)nc1NC1CCOCC1`: “autosampler stability time” ≤ 24 h (processed mouse plasma QC samples; 4 °C).
`CNCCOC12CC3(C)CC(C)(CC(Cn4ncc(-c5ccc(N6CCc7cccc(C(=O)Nc8nc9ccccc9s8)c7C6)nc5C(=O)O)c4C)(C3)C1)C2`: “systemic vascular resistance change” 10% (anaesthetised male beagle dogs; intravenous bolus, 0.03 mg/kg, 45 min; reference: baseline).
`CN[C@@H]1COc2c(S(=O)(=O)NC(=O)Nc3c4c(cc5c3CCC5)CCC4)cnn2C1` — result for “amount excreted in urine 0-48 h”: 74.8 mg (healthy human volunteers, urine; oral, 600 mg, fasted).
`C[C@@H]1COCCN1c1cc(C2([S@](C)(=N)=O)CC2)nc(-c2cc[nH]c3nccc2-3)n1` gave a Pruritus incidence of 0% (Japanese advanced solid tumour patients; oral, 160 mg twice daily, any grade).
With `O=C(Cc1ccc2ccccc2c1)Nc1cc(C2CCC2)[nH]n1` the accuracy was 99.6% (mouse plasma; 0.5 ng/mL, 40 days, -80 °C, long-term storage stability).
`CC(C)(Sc1ccncc1-c1ccc(C#N)c2ccccc12)C(=O)O` — result for “amount excreted in urine (0-24 h)”: 31.6 µg (human, urine; oral, 2.5 mg, together with: febuxostat 10 mg).
`COc1cc(C(=O)NC2CCN(C)CC2)c(F)cc1Nc1ncc(C(F)(F)F)c(Oc2cccc3c2C(=O)N(C)C3)n1`: “renal clearance (0-24 h)” 13.4 mL/min (human patients, urine and plasma; oral, 100 mg single dose, geometric mean).
`C[C@@H](c1ncncc1F)[C@](O)(Cn1cncn1)c1ccc(F)cc1F`: “drug-related TEAE incidence” 0% (item: decreased appetite; human; oral, 400 mg).
For `CCO[C@H]1CCN(Cc2c(OC)cc(C)c3[nH]ccc23)[C@H](c2ccc(C(=O)O)cc2)C1`, the unbound half-life was 14.5 h (human mild hepatic impairment, plasma; oral, 200 mg single dose, geometric mean).
For `O=C(N[C@H](Cc1c[nH]c2ccccc12)C(=O)Nc1ccncc1)c1ccc(-c2ccc(F)c(Cl)c2)cc1F`, the concentration was 38200 nM (Swiss Webster mouse, female, liver; oral, 50 mg/kg, 8 h, 20% HPβCD vehicle).
`FC(F)(F)c1ccc(CNc2ccc(Cc3c[nH]c4ncc(Cl)cc34)cn2)cn1` — result for “treatment-related adverse events”: 2% (item: Hypertension; patients with advanced solid tumours, non-TGCT cohort; oral, 1000 mg/day, any grade).
`Cc1ccc(Sc2ccccc2N2CCNCC2)c(C)c1` gave an abdominal distension of 0% (healthy adult men; oral, 2.5 mg single).
For `c1ccc2cc3c(ccc4ccccc43)cc2c1`, “literature range factor” read 6 (polyethylene-water partitioning; PAH compilation; reference: maximum over minimum K).
For `C=C[C@@](C)(/C=C/c1ccc(O)cc1)CCC=C(C)C`, the accuracy was 82.4% (post-procedure stability; rat plasma; 8 ng/mL, 1 h, room temperature).
`Cc1ccc([C@@H]2O[C@H](CO)[C@@H](O)[C@H](O)[C@H]2O)cc1Cc1ccc(-c2ccc(F)cc2)s1`: “urinary sodium excretion change” 36.1 mEq (Japanese type 2 diabetes patients; 400 mg, day 1, 24 h urine collection; reference: baseline).
`Cc1cc(-c2nccc3c2ccn3CC(=O)Nc2ccc(-c3cnccn3)cn2)ccn1`: “subjects with TEAE leading to discontinuation” 0% (human; MAD part, 20 mg once daily).
`C=CCN1CC(=O)N2[C@@H](Cc3ccc(O)cc3F)C(=O)N(Cc3cccc(N4CC(N5CCN(CC)CC5)C4)n3)C[C@@H]2N1C(=O)NCc1ccccc1` has a treatment-related diarrhoea of 0% (advanced solid tumour patients; oral, 15 mg twice daily, grade ≥3, dose-escalation).
For `CCN1CCN(Cc2ccc(Nc3ncc(F)c(-c4cc(F)c5nc(C)n(C(C)C)c5c4)n3)nc2)CC1`, the Vss/F was 1740 L (healthy human, fasted; oral, 150 mg, tablet).
`COC(=O)C1=CO[C@@H](O[C@@H]2O[C@H](CO)[C@@H](O)[C@H](O)[C@H]2O)[C@@H]2C(CO)=CC[C@H]12` has an accuracy of 89.9% (rat plasma; 8 ng/mL, 2 weeks, -70 °C, post-preparative stability).
`COCCOc1cnc2ccn([C@H](C)c3nnc4c(F)cc(-c5cnn(C)c5)cn34)c(=O)c2c1` gave a Ctrough of 400 ng/mL (patients; oral, 300 mg once daily, day 1, 24 h postdose, dose escalation).
For `O=C(Nc1nc2cccc(-c3ccc(CN4CCS(=O)(=O)CC4)cc3)n2n1)C1CC1`, “treatment-emergent adverse events” read 0% (item: regurgitation; rheumatoid arthritis patients; oral, 150 mg once daily, 4 weeks, any relatedness).
